Published values gathered from unrelated publications.
Protocols differ between the studies behind these lines. Several values in a cell are separate wells, animals, samples, runs or records. ± gives the spread as reported.

| SMILES | cell line | assay | conditions | scale | measurement | value |
| --- | --- | --- | --- | --- | --- | --- |
| COc1cc2ncnc(Nc3ccc(OCc4ccccc4)cc3)c2cc1OC | HeLa expressing Ub(G76V)-GFP | Ub(G76V)-GFP degradation, inhibitor, cycloheximide chase | 12 µM |  | inhibition | 19% |
| O=C(/C=C/C=C/C=C/C1CCCCC1)NC1=C[C@@](O)(/C=C/C=C/C=C/C(=O)NC2=C(O)CCC2=O)[C@@H]2O[C@@H]2C1=O | ialm | cell growth, inhibitor, CellTiter-Glo luminescence | 78 h | baseline: day 0 cell count | GI50 | 13.9 µM |
| COc1cc2c(cc1-c1c(C)noc1C)ncc1[nH]c(=O)n([C@H](C)c3ccccn3)c12 | HBL-1 |  | 0.5 µM, 120 h |  | viability | 39.1% |
| CC1(C)CN(CCCCC(=O)N[C@@H](CCC(=O)O)C(=O)N[C@@H](CCC(=O)O)C(=O)N[C@H](CCCCNC(=O)CCCCCCC(=O)NCCCC[C@H](NC(=O)N[C@@H](CCC(=O)O)C(=O)O)C(=O)O)C(=O)O)CC[N]2CC(C)(C)[S][Tc]2(=[O])[S]1 (stereo partly shown) [technetium-99m labelled] | LNCaP |  | 25 nM, 1 h, 4 °C |  | internalized activity | 0.52 ± 0.32 %AD/mg protein |
| CCCC(=O)O | HBL-1 |  | 0.1 µM, 120 h |  | viability | 119% |
| C=CCn1c(=O)c2cnc(Nc3ccc(N4CCN(C)CC4)cc3)nc2n1-c1ccc2c(n1)[C@@](O)(CC)CC2 | OVCAR-3 | flow cytometry | concentration not given, G1 phase |  | γH2AX-positive cells | 9.4% |
| O=C(CCCCCN1C(=O)c2cccc3cccc(c23)C1=O)NO | HBL-1 |  | 0.5 µM, 120 h |  | viability | 86.7% |
| CC(C)c1nn(-c2c(Cl)cccc2Cl)c2nc(Cc3ccc(OCCO)cc3)[nH]c(=O)c12 | HeLa expressing Ub(G76V)-GFP | Ub(G76V)-GFP degradation, cycloheximide chase | 12 µM |  | inhibition | 14% |
| COc1cccc2c1C(=O)c1c(O)c3c(c(O)c1C2=O)C[C@@](O)(C(=O)CO)C[C@@H]3O[C@H]1C[C@H](N)[C@H](O)[C@H](C)O1 | A-172 | WST-1 | 72 h, highest tested concentration |  | maximal cytotoxicity | 92.3% |
| CC(=O)[C@]1(O)Cc2c(O)c3c(c(O)c2[C@@H](O[C@H]2C[C@H](N)[C@H](O)[C@H](C)O2)C1)C(=O)c1ccccc1C3=O | BT-12 | cell viability, MTT | 10 µM, 72 h |  | inhibition | 93.5% |
| Cn1cc(-c2ccc(-c3cncc(Cl)c3N3CCC4(CCNC4=O)CC3)cc2)cn1 | COLO 205 | gene expression, microarray, item: AK4 mRNA | concentration not given, 2 h | baseline: untreated cells | log2 fold change | 2.18 |
| COc1cc(/C=C/C(=O)N2CCC=CC2=O)cc(OC)c1OC | MDA-MB-468 | qRT-PCR, item: Survivin | 30 µM, 6 h | baseline: time zero | mRNA expression | 67.4 ± 3.3% |
| CC(Nc1nc(N2CCCC2)nc2ccccc12)c1ccccc1 (stereo not shown) | HeLa Kyoto | RelA nuclear import, high content imaging | 15.82 µM, 3 h, with: 1 µM PMA, 60 min |  | cells with nuclear RelA | 77.8% and 80.7% |
| COc1ccc(CNC(=O)Nc2ncc([N+](=O)[O-])s2)cc1 | HeLa expressing Ub(G76V)-GFP | Ub(G76V)-GFP degradation, cycloheximide chase | 12 µM |  | inhibition | 87% |
| COc1cc2ncnc(Nc3ccc(Oc4ccccc4)cc3C)c2cc1OC.O=C(O)C(F)(F)F | NCI-H2087 (BRAF L597V) |  | 0.1 µM, with: trametinib 0 nM |  | fractional effect | -0.0112 |
| COc1cccc(-c2cc(=O)c3ccccc3o2)c1N | HeLa expressing Ub(G76V)-GFP | Ub(G76V)-GFP degradation, cycloheximide chase | 12 µM |  | inhibition | 34% |
| CCn1cc(-c2cc(Cn3ccnc3)cc3c2CCN([C@H](c2cc(OC)ccn2)C2CC2)C3=O)c(C(F)(F)F)n1 | KNS-62 | cell growth, inhibitor | 120 h |  | EC50 | > 30 µM |
| C=CC(=O)N1CCCN(C(=O)c2cc(Sc3cnc(NC(=O)C4CC4)s3)c(C)cc2OC)C[C@H]1C | human CD4 T cells | MSD, item: IL-4, IL-5, IL-13 | 3 days, with: TCR stimulation |  | Th2 cytokine production | decreased |
| O=c1[nH]nc(OCCCc2ccc(Cl)cc2)c(NCc2cccnc2)c1Br | HEK293T | RNA-seq, item: ASNS mRNA | 10 µM, 6 h | baseline: vehicle | log2 fold change | 1.76 |
| Nc1[nH]nc2nnc(-c3c(-c4ccccc4)nn4ccccc34)cc12 | HeLa expressing Ub(G76V)-GFP | Ub(G76V)-GFP degradation, cycloheximide chase | 12 µM |  | inhibition | 20% |
| O=C(CCCCCN1C(=O)c2cccc3cccc(c23)C1=O)NO | BT-12 | cell viability, MTT | 10 µM, 72 h |  | inhibition | 81.2% |
| O=C(CCCCCCC(=O)Nc1ccc([C@H]2O[C@@H](CSc3nc(-c4ccccc4)c(-c4ccccc4)o3)C[C@@H](c3ccc(CO)cc3)O2)cc1)NO | HBL-1 |  | 1 µM, 120 h |  | viability | 78.9% |
| O=C(CC1NCCCC1O)Cn1cnc2cc(Br)c(Cl)cc2c1=O (stereo not shown) | BT-12 | cell viability, MTT | 10 µM, 72 h |  | inhibition | 93% |

| SMILES | cell line | assay | conditions | scale | measurement | value |
| --- | --- | --- | --- | --- | --- | --- |
| O=c1ncccn1[C@@H]1O[C@H](CO)[C@@H](O)[C@H]1O | HBL-1 |  | 1 µM, 120 h |  | viability | 100% |
| Clc1nc(NCc2ccco2)c2[nH]cnc2n1 | FD iPSC-derived cardiomyocytes | alternative splicing, RNA-seq, item: CD200 exon chr3:112340901-112340983 | unit not given | baseline: DMSO minus compound | ΔPSI | 0.211 |
| CC(C)n1nc(-c2cc3cc(O)ccc3[nH]2)c2c(N)ncnc21 | hiPSC cardiomyocytes | CellTiter-Glo | concentration not given, 24 h | baseline: vehicle | ATP level | 87.8% |
| CCn1c(-c2nonc2N)nc2c(C#CC(C)(C)O)ncc(OC[C@H]3CCCNC3)c21 | UACC-903 | immunoblot | concentration not given, 1 h, with: TNF-α 5 min |  | IκB phosphorylation | no inhibition |
| Nc1nc(S)nc(O)c1N=Cc1cn(-c2ccccc2)nc1-c1ccc(Cl)cc1 | CCRF-CEM | flow cytometry | CC50, 8 h |  | caspase-3 activated cells | 30.8% |
| CC/C(=N\NC(=O)NCc1cccc(O)c1)c1ccc(O)c(C)c1O | SK-OV-3 | gene expression, microarray, item: TGFB2 | 10 µM, 24 h | baseline: DMSO | log ratio | 3.83 |
| COc1cnc2cccc(N3CCc4c(cc(Cn5ccnc5C)cc4-c4cn(C)nc4C(F)(F)F)C3=O)c2c1 | OCI-Ly7 | cell growth, inhibitor | 120 h |  | EC50 | > 30 µM |
| C=Cc1c2[n-]c(c1C)/C=c1\[n-]/c(c(C)c1C=C)=C\c1[n-]c(c(CCC(=O)O)c1C)/C=c1\[n-]c(c(C)c1CCC(=O)O)=C2.[Sn+4] | SH-SY5Y | RNA-seq, item: TNS1 mRNA | 5 µM, 5 h | baseline: untreated cells | fold change | 1.85 |
| N=C1NC(=O)/C(=C/c2ccc(O)cc2)S1 | HBL-1 |  | 1 µM, 120 h |  | viability | 92.5% |
| Cc1ccc(C=NNC(=O)C2CC(=O)N(c3ccc(F)cc3F)C2)cc1 (stereo not shown) | MDA-MB-231 and fibroblast spheroids | MTT | 10 µM, day 8 |  | viability reduction, up to | 53.2% |
| CCCCc1oc2ccc(NS(C)(=O)=O)cc2c1C(=O)c1ccc(OCCCN(CCCC)CCCC)cc1 | human embryonic stem cell aggregates | mRNA level, microarray, item: KITLG | 0.5 µM, 120 h | baseline: untreated, up-regulated | fold change | 1.8 fold |
| CCn1cc(-c2cc(Cn3ccoc3=N)cc3c2CCN([C@@H](C)c2cc(OC)ccn2)C3=O)c(C(F)(F)F)n1 | LK-2 | cell growth, inhibitor | 120 h |  | EC50 | 0.0164 µM |
| CCOC(=O)CSc1nc(-c2ccc(Cl)cc2)c2c(NC(=O)c3ccccc3)nnc-2[nH]1 | Hs-578T | SRB | 10 µM, NCI60 single-dose screen | baseline: untreated | cell growth | 92.6% |
| CCCc1cc(C)[nH]c(=O)c1CNC(=O)c1cc(-c2ccc(N3CCN(C(C)C)CC3)nc2)cc2c1cnn2C(C)C | HBL-1 |  | 1 µM, 120 h |  | viability | 113% |
| CC(=O)c1nn(-c2ccc(Cl)cc2)/c(=N/N=C(\C)c2ccc(NC(=O)c3ccc(C)cc3)cc2)s1 | MCF7 |  | 0.625 µM |  | toxicity | 73.5% |
| CCS(=O)(=O)c1nc(C2CC2)cc(C(F)(F)F)n1 | HeLa Kyoto | RelA nuclear import, high content imaging | 1.58 µM, 3 h, with: 1 µM PMA, 60 min |  | cells with nuclear RelA | 85.2% and 76.5% |
| Cn1cc(Nc2nccc(-c3ccc4c(c3)CN(C3COC3)CC[C@H]4NC(=O)c3cn(C(C)(C)C)nn3)n2)cn1 | mouse splenic B cells | item: FGF signalling | 30 mg/kg, IgD-activated in vivo | baseline: vehicle, direction not given | pathway activation z-score | 3.46 |
| O=C(C[C@@H](C(F)F)n1ccc(F)n1)N1CCC(O)(Cn2cnc3c(cnn3-c3ccc(F)cc3)c2=O)CC1 | CHP-212 resistant cells (pooled) | annexin V-PI flow cytometry | 1 µM, 48 h |  | viable cells (annexin V-/PI-) | 86.5% and 87% and 81.6% |
| CN([C@@H](Cc1ccc(OS(=O)(=O)c2cccc3cnccc23)cc1)C(=O)N1CCN(c2ccccc2)CC1)S(=O)(=O)c1cccc2cnccc12 | HeLa expressing Ub(G76V)-GFP | Ub(G76V)-GFP degradation, cycloheximide chase | 12 µM |  | inhibition | 9% |
| CC(C)n1c(/C=C/C(O)CC(O)CC(=O)O)c(-c2ccc(F)cc2)c2ccccc21 (stereo not shown) | BT-12 | cell viability, MTT | 10 µM, 72 h |  | inhibition | 80.6% |
| COc1ccc(NC(=S)N/N=C/c2cccc3cc4ccccc4nc23)cc1 | HeLa | PI flow cytometry | IC25, 48 h |  | S phase cells | 26 ± 0.4% |
| COc1ccc(/C=C\c2cc(OC)c(OC)c(OC)c2)cc1OP(=O)(O)O | BT-12 | cell viability, MTT | 10 µM, 72 h |  | inhibition | 87.6% |
| O=c1oc2c(O)c(O)cc3c(=O)oc4c(O)c(O)cc1c4c23 | HBL-1 |  | 1 µM, 120 h |  | viability | 95.9% |

A few entries again:
| SMILES | cell line | assay | conditions | scale | measurement | value |
| --- | --- | --- | --- | --- | --- | --- |
| CC(C)c1nn(-c2c(Cl)cccc2Cl)c2nc(Cc3ccc(OCCO)cc3)[nH]c(=O)c12 | HeLa expressing Ub(G76V)-GFP | Ub(G76V)-GFP degradation, cycloheximide chase | 12 µM |  | inhibition | 14% |
| CC1(C)CN(CCCCC(=O)N[C@@H](CCC(=O)O)C(=O)N[C@@H](CCC(=O)O)C(=O)N[C@H](CCCCNC(=O)CCCCCCC(=O)NCCCC[C@H](NC(=O)N[C@@H](CCC(=O)O)C(=O)O)C(=O)O)C(=O)O)CC[N]2CC(C)(C)[S][Tc]2(=[O])[S]1 (stereo partly shown) [technetium-99m labelled] | LNCaP |  | 25 nM, 1 h, 4 °C |  | internalized activity | 0.52 ± 0.32 %AD/mg protein |
| CCn1cc(-c2cc(Cn3ccnc3)cc3c2CCN([C@H](c2cc(OC)ccn2)C2CC2)C3=O)c(C(F)(F)F)n1 | KNS-62 | cell growth, inhibitor | 120 h |  | EC50 | > 30 µM |
| C=CC(=O)N1CCCN(C(=O)c2cc(Sc3cnc(NC(=O)C4CC4)s3)c(C)cc2OC)C[C@H]1C | human CD4 T cells | MSD, item: IL-4, IL-5, IL-13 | 3 days, with: TCR stimulation |  | Th2 cytokine production | decreased |
| CC(C)n1c(/C=C/C(O)CC(O)CC(=O)O)c(-c2ccc(F)cc2)c2ccccc21 (stereo not shown) | BT-12 | cell viability, MTT | 10 µM, 72 h |  | inhibition | 80.6% |
| CCCCc1oc2ccc(NS(C)(=O)=O)cc2c1C(=O)c1ccc(OCCCN(CCCC)CCCC)cc1 | human embryonic stem cell aggregates | mRNA level, microarray, item: KITLG | 0.5 µM, 120 h | baseline: untreated, up-regulated | fold change | 1.8 fold |
| Clc1nc(NCc2ccco2)c2[nH]cnc2n1 | FD iPSC-derived cardiomyocytes | alternative splicing, RNA-seq, item: CD200 exon chr3:112340901-112340983 | unit not given | baseline: DMSO minus compound | ΔPSI | 0.211 |
